Measurements gathered from unrelated publications.
Compare with care: the assays were run in different laboratories. Numbers after ± are the reported error.
PYL4: PYL4 (Arabidopsis thaliana, UniProt O80920)
Chain of UniProt O80920 (whole entry, looked up): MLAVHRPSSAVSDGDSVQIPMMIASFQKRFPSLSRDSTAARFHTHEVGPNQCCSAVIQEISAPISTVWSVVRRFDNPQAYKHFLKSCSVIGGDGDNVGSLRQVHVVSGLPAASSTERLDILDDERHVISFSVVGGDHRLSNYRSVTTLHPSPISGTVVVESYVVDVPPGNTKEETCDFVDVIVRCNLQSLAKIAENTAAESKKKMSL
FPR1: fMet-Leu-Phe receptor (FPR1, Homo sapiens, UniProt P21462)
Chain of UniProt P21462 (whole entry, looked up): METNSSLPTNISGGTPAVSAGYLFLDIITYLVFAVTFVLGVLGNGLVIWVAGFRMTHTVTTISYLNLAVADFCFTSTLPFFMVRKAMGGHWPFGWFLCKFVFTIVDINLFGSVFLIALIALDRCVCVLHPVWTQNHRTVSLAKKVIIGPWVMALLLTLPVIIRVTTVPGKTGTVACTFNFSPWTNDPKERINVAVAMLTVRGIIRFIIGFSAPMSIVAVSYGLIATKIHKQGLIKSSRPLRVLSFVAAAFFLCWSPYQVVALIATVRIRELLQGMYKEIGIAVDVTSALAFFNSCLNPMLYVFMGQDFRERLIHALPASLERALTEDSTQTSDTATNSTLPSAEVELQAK
IDE: Insulin-degrading enzyme (IDE, Homo sapiens, UniProt P14735)
Chain of UniProt P34995 (whole entry, unmodified, looked up): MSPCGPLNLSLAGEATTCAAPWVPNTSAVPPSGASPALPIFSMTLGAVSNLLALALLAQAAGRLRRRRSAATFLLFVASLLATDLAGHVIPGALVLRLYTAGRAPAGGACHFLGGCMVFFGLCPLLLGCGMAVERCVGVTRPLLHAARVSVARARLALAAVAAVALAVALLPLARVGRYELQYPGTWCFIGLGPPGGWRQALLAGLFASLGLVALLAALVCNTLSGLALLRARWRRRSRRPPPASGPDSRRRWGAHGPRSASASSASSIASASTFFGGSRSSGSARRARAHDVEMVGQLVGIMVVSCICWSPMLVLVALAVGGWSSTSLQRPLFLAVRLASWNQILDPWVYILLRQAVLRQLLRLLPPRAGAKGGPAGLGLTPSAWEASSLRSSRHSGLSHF
Chain of UniProt P37231 (whole entry, looked up): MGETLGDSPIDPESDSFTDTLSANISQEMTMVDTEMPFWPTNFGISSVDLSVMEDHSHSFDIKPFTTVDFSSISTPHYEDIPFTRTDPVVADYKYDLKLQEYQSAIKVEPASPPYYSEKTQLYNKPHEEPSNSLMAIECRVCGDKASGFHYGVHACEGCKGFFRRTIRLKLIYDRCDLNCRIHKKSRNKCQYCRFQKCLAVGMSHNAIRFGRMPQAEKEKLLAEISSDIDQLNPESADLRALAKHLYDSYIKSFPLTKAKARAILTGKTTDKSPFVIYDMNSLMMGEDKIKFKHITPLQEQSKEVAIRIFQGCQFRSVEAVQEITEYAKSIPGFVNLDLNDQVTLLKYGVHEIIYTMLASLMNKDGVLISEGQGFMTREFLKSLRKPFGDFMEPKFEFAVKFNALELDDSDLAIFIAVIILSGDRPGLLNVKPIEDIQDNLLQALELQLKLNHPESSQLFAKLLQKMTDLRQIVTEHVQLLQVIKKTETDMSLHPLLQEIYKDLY
Chain of UniProt P11607 (whole entry, looked up): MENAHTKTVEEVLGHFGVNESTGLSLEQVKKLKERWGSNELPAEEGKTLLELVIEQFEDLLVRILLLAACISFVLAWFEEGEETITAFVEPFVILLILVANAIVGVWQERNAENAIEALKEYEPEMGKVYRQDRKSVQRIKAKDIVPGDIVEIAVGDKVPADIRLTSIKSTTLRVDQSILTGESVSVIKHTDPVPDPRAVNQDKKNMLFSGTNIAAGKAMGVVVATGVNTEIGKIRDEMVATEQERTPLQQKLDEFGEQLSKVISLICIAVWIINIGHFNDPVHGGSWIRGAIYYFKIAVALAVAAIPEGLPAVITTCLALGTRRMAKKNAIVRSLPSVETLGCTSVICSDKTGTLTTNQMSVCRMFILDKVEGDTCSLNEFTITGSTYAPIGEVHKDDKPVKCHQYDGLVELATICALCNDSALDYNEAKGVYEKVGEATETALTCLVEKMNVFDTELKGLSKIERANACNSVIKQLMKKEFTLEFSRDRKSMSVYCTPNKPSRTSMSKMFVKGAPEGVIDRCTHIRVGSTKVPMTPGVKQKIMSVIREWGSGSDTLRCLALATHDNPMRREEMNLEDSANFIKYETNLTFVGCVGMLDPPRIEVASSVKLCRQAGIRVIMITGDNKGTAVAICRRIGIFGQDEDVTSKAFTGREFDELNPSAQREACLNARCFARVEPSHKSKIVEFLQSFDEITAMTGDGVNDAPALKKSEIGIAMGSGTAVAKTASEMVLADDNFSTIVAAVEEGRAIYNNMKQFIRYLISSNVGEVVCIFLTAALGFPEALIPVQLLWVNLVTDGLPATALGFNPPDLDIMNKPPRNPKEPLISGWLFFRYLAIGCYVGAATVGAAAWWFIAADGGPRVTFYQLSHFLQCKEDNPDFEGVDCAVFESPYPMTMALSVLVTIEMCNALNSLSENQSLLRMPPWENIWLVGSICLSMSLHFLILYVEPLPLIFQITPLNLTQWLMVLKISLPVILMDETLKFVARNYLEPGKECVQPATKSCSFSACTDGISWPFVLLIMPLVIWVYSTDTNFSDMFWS
Chain of UniProt P35414 (whole entry, looked up): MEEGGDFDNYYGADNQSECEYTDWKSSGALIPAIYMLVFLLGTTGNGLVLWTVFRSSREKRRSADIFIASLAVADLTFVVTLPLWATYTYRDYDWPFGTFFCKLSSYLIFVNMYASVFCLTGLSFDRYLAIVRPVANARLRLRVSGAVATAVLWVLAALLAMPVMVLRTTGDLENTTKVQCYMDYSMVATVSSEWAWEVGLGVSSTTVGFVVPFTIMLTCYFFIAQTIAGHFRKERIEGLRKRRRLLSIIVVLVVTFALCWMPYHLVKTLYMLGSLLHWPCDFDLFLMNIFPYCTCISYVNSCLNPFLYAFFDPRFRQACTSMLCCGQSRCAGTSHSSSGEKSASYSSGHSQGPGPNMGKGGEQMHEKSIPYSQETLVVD
Chain of UniProt P07550 (whole entry, looked up): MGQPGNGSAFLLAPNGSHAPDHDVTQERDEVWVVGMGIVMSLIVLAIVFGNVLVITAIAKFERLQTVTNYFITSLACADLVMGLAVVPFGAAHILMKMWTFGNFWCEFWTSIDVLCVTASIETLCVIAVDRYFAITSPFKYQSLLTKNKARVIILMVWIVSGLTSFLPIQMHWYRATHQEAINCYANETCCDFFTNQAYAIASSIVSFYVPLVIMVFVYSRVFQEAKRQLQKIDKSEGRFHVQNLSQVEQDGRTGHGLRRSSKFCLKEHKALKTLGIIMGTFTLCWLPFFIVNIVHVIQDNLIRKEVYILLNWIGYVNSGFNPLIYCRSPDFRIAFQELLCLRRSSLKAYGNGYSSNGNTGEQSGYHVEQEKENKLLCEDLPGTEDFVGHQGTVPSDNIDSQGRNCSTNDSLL

Compound | tested on | test | test system | setting | quantity | value
O=C(Cc1cc(C2CC2)c(-n2cc(CNC(=O)c3ccc4ccccc4c3)nn2)c(C2CC2)c1)NC1(C(=O)O)CCCCC1 | PYL4 | phosphatase activity recovery, antagonist |  | added: HAB1, ABA 5000 nM | EC50 | 0.669 ± 0.089 µM
N#Cc1ccc(C[C@H](Nc2nnc(-c3ccc(Br)cc3)s2)C(=O)N2CCc3ccccc32)cc1 | FPR1 | calcium mobilization, agonist | HL-60 transfected with FPR1 | inactive up to 50 µM | EC50 | > 50 µM
CCCCCCCCCCCCCCCc1cccc(O)c1C(=O)O | HBL-1 |  |  | 0.1 µM, 120 h | viability | 129%
Cc1ccccc1S(=O)(=O)N1CCCCN2[C@H](CO)[C@@H](c3ccc(-c4ccccc4)cc3)[C@@H]2C1 | IDE | enzyme activity, inhibitor, fluorescence kinetic |  | added: Mca-RPPGFSAFK(Dnp)-OH substrate | EC50 | 0.41 µM
Nc1nc2c(ncn2[C@@H]2O[C@@H]3COP(=O)(O)O[C@H]3[C@H]2O)c(=O)[nH]1 | Cone cGMP-gated channel (Morone saxatilis, UniProt Q3I0N1+Q3I0N2) | cGMP-gated channel current, agonist, suction electrode | Morone saxatilis, single cone outer segment | added: 0.4 mM zaprinast, 1 mM Mg2+, 0 µM Ca2+ | EC50 | 121 ± 9.3 µM
O=C(Cc1cc(C2CC2)c(-n2cc(CNC(=O)c3cnc4ccccc4n3)nn2)c(C2CC2)c1)NC1(C(=O)O)CCCCC1 | PYL4 | phosphatase activity recovery, antagonist |  | added: HAB1, ABA 5000 nM | EC50 | 0.128 ± 0.014 µM
COc1ccccc1C#Cc1ccc([C@H]2[C@H](CO)N3CCCCN(C(=O)C4CCC4)C[C@@H]23)cc1 | IDE | enzyme activity, inhibitor, fluorogenic kinetic |  | added: Mca-RPPGFSAFK(Dnp)-OH substrate | EC50 | 2.7 µM
N#Cc1ccc(C[C@@H](Nc2nnc(-c3ccc(F)cc3)o2)C(=O)N2CCc3ccccc32)cc1 | FPR1 | calcium mobilization, agonist | HL-60 transfected with FPR1 | inactive up to 50 µM | EC50 | > 50 µM
Cc1cccc(-c2ccc([C@H]3[C@@H](CO)N4CCCCN(Cc5cccnc5)C[C@H]34)cc2)c1 | IDE | enzyme activity, inhibitor, fluorogenic kinetic |  | added: Mca-RPPGFSAFK(Dnp)-OH substrate | EC50 | 10.7 µM
c1ccc(CCCCCOCCc2ccc3c(c2)CCCN3)cc1 | ATP2A2 (Sus scrofa, UniProt P11607) | ATPase activity, activator, NADH-coupled enzyme | enriched microsomes |  | EC50 | ~4 µM
Cc1ccc(C)c(-c2ccc([C@@H]3[C@@H](CO)N4CCCCN(S(=O)(=O)c5ccccc5C)C[C@@H]34)cc2)c1 | IDE | enzyme activity, inhibitor, fluorescence kinetic |  | added: Mca-RPPGFSAFK(Dnp)-OH substrate | EC50 | 0.054 µM
CCCCC[C@H](O)/C=C/[C@H]1[C@H](O)CC(=O)[C@@H]1C/C=C\CCCC(=O)O | PTGER1 (Homo sapiens, UniProt P34995, G92A/P39A) | IP1 accumulation, agonist | AD293 |  | EC50 | 0.069 µM
Cc1cc(C)c(CNC(=O)c2cc(-c3ccc(CN4CCOCC4)cc3)cc3c2cnn3C2CCCC2)c(=O)[nH]1 | HBL-1 |  |  | 1 µM, 120 h | viability | 101%
CCOCc1nc(O)c(-c2nnc(Cc3ccc(Cl)cn3)o2)c(O)c1-c1c(OC)cccc1OC | Apelin receptor (APLNR, Homo sapiens, UniProt P35414) | β-arrestin1 recruitment, agonist, BRET | HEK293 |  | EC50 | 0.00881 ± 0.00026 µM
N#Cc1ccc(C[C@H](NC(=O)c2cc3cc([N+](=O)[O-])ccc3[nH]2)C(=O)N2CCc3ccccc32)cc1 | FPR1 | calcium mobilization, agonist | HL-60 transfected with FPR1 | inactive up to 50 µM | EC50 | > 50 µM
CCn1c(-c2nc3ccc(C(=O)N4CCCC(N)C4)cc3n2C)cc2ccccc21 (centres unmarked) | ADRB2 (Homo sapiens, UniProt P07550) | agonist, TR-FRET |  |  | EC50 | > 31.6 µM
CCO[C@@H](Cc1ccc(OCCn2c(C)ccc2-c2ccc(SC)cc2)cc1)C(=O)O | PPARG (Homo sapiens, UniProt P37231) | receptor activation, agonist, luciferase reporter |  | serum-free, species human | EC50 | 0.3 µM
